Results collected from several papers.
Compare with care: the assays were run in different laboratories. ± gives the spread as reported.

SMILES = O=C(N[C@H](Cc1c[nH]c2ccccc12)C(=O)Nc1ccncc1)c1ccc(N2CCN(c3ccc(F)cc3F)CC2)cc1F; test system = Swiss Webster mouse, female, brain; conditions = oral, 50 mg/kg, 8 h, 20% HPβCD vehicle; quantity = concentration; value = 580 nM
SMILES = CCn1c(=O)c(-c2cc(NC(=O)Nc3ccccc3)c(F)cc2Br)cc2cnc(NC)cc21; test = item: amylase increased; test system = healthy human, matched to mild hepatic impairment; conditions = oral, 50 mg single dose; quantity = participants with grade ≥ 3 TEAE; value = 0%
SMILES = O=C(NCCc1cccnc1)c1ccc([C@H]2[C@@H](F)[C@@H](F)C[C@@H](F)[C@H]2F)cc1; test = liver microsome stability; test system = rat liver microsomes; conditions = 1 µM; quantity = hepatic clearance; value = 48 mL/min/kg
SMILES = CC(C)C[C@@H]1NC(=O)CN(C)C(=O)[C@H](Cc2ccccc2)NCC2=CC=C(CNC1=O)O2; test = PAMPA; test system = 2% lecithin in dodecane; conditions = 100 µM, 17 h, pH 6.4, 37 °C; quantity = -log Pe; value = 5.88 + 0.04
SMILES = O=C(Nc1cnccc1Cl)N1CCN(Cc2ccc3c(c2)OC(F)(F)O3)CC1; test = item: Presyncope; test system = human healthy young women; conditions = 100 mg, multiple dose; quantity = adverse event incidence; value = 0%
SMILES = Cc1cc(C)c(CNC(=O)c2cc(Cl)c3c(c2C)O[C@@](C)([C@H]2CC[C@H](N(C)C)CC2)O3)c(=O)[nH]1; test system = human, plasma; conditions = oral, 200 mg; quantity = share of plasma radioactivity; value = 77.1%
SMILES = COc1ccnc(C(=O)NC(CO)C(=O)O)c1O (racemic); test = soil adsorption; test system = clay loam soil; conditions = pH 7.2, organic carbon 4.4 %; quantity = KFoc; value = 138 mL/g
SMILES = CC(C)(C(=O)N1CCOc2c(C#N)cncc2C1)C(F)F; test = item: skin disorders; test system = healthy humans, both sexes; conditions = oral, 20 mg single dose; quantity = share of subjects with TEAE; value = 0%
SMILES = C[C@@H](N)C1CCN(S(=O)(=O)c2cccc3cnccc23)CC1; test system = healthy volunteers; conditions = 150 mg, fasted; quantity = participants with mental impairment; value = 0%
SMILES = CC(C(=O)Nc1ccc(C2CCCCC2)cc1)n1cncn1 (centres unmarked); test system = cryopreserved mouse hepatocytes; conditions = 1 µM; quantity = hepatic clearance; value = 49 mL/min/kg
SMILES = CCCCC1=NC2(CCCC2)C(=O)N1Cc1ccc(-c2ccccc2S(=O)(=O)Nc2noc(C)c2C)c(COCC)c1; test system = healthy adult volunteers, plasma; conditions = oral, 1600 mg, single dose, fed, crushed tablet; quantity = Tmax; value = 6 h
SMILES = Cc1cn(C(=O)c2c(-c3c(Cl)cc(Cl)cc3Cl)noc2C(C)(C)F)c2cccc(/C=C/C(=O)O)c12; test system = human patients; conditions = 1000 mg bid, cycle 1 day 1; quantity = AUC(0-8h); value = 151 µg·h/mL
SMILES = Cc1ccc(N(C)C(=O)/C=C/c2ccco2)cc1; test = cold plate test; test system = mice; conditions = oral, 30 mg/kg single, 60 min; quantity = licking latency; value = 18.8 ± 0.8 s
SMILES = N#Cc1ccc2c(c1)[C@H]1CCCN(C(=O)c3ccc4[nH]cnc4c3)[C@H]1C2; test system = human, plasma; conditions = 80 mg once daily, day 7; quantity = pre-dose plasma concentration; value = 2080 nmol/L
SMILES = O=[N+]([O-])c1cc2c3ccccc3ccc2c2ccccc12; test system = female Sprague-Dawley rats, mammary gland; conditions = intramammary injection, 12.3 µmol/rat total, palpation from week 5; quantity = time to first palpable tumour; value = 9 week
SMILES = N#Cc1ccc2c(c1)[C@H]1CCCN(C(=O)c3ccc4[nH]cnc4c3)[C@H]1C2; test system = human, female; conditions = 240 mg, end of trial; quantity = androstenedione level; value = 4.6 nmol/L
SMILES = CO[C@H]1C[C@@H]2CC[C@@H](C)[C@@](O)(O2)C(=O)C(=O)N2CCCC[C@H]2C(=O)O[C@H]([C@H](C)C[C@@H]2CC[C@@H](OC(=O)NCCOCCOCCOCCOCCOCCOCCOCCOCCC(=O)N3CCc4cc(Cn5nc(-c6ccc7oc(N)nc7c6)c6c(N)ncnc65)ccc4C3)[C@H](OC)C2)C[C@@H](O)[C@H](C)/C=C(\C)[C@@H](O)[C@@H](OC)C(=O)[C@H](C)C[C@H](C)/C=C/C=C/C=C/1C; test system = human patients, plasma; conditions = intravenous, 10 mg, cycle 1 day 15, weekly dosing, 1 h infusion, arithmetic mean; quantity = Tmax; value = 0.83 h
SMILES = C=CC(=O)N1CCC(c2ccc(C(N)=O)c(-c3ccc(Oc4ccccc4)cc3)n2)CC1; test = CTCAE 4.03; test system = patients with relapsed/refractory MCL; conditions = oral, dose not given; quantity = incidence of serious GI necrosis; value = 0.9%
SMILES = Cc1nc2ccc(F)cc2n1-c1nc(N)c(F)c(Nc2ccc(C(F)(F)F)cc2)n1; test system = leiomyosarcoma patients; conditions = 300 mg twice weekly, added: dacarbazine 1000 mg/m^2; how to read = baseline: subjects; quantity = myelosuppression-related DLT; value = 14.2%
SMILES = CCN1/C(=C/C(C)=O)Sc2ccc(F)cc21; test system = cynomolgus monkey; conditions = oral, 100 mg/kg, 1 h post-dose; quantity = PR interval; value = 88 ± 4 ms
SMILES = N#CCC(=O)Nc1ccc([C@H]2[C@@H](F)[C@@H](F)C[C@@H](F)[C@H]2F)cc1; test = liver microsome stability; test system = rat liver microsomes; conditions = 1 µM; quantity = hepatic clearance; value = 6.1 mL/min/kg
SMILES = CC(C)(c1ccc(O)cc1)c1ccc(O)cc1; test system = cow whole milk; conditions = 2000 nM; how to read = baseline: milk fat over skim milk; quantity = milk fat partition ratio; value = 13.7
SMILES = C=CCn1c(=O)c2cnc(Nc3ccc(N4CCN(C)CC4)cc3)nc2n1-c1cccc(C(C)(C)O)n1; test system = human patients; conditions = oral, 150 mg twice daily, monotherapy, -5 day lead-in; quantity = AUC(0-10 h); value = 5.22 µM·h
SMILES = CN(Cc1cccnc1)C(=O)c1ccc(C2CCCCC2)cc1; test = liver microsome stability; test system = human liver microsomes; conditions = 1 µM, without NADPH; quantity = hepatic clearance; value = 3.9 mL/min/kg
SMILES = CN[C@H](CC(C)C)C(=O)N[C@H]1C(=O)N[C@@H](CC(N)=O)C(=O)N[C@H]2C(=O)N[C@H]3C(=O)N[C@H](C(=O)N[C@H](C(=O)O)c4cc(O)cc(O)c4-c4cc3ccc4O)[C@H](O)c3ccc(c(Cl)c3)Oc3cc2cc(c3O[C@@H]2O[C@H](CO)[C@@H](O)[C@H](O)[C@H]2O[C@H]2C[C@](C)(N)[C@H](O)[C@H](C)O2)Oc2ccc(cc2Cl)[C@H]1O; test system = guinea pig, serum; conditions = intraperitoneal, 15 mg/kg single, 12 h; quantity = Cmin; value = 2.16 µg/mL
SMILES = CCc1cc2ncc(CN3CCN(c4ccc(C(=O)NC)nc4)CC3)cc2[nH]c1=O; test system = female rat, blood; conditions = oral, 25 mg/kg/day, 4 weeks; how to read = baseline: vehicle control; quantity = Lymphocytes count ratio; value = 0.77
SMILES = NC(=O)N1c2ccccc2CC(O)c2ccccc21 (centres unmarked); test = population PK modelling; test system = human patients, plasma; conditions = dose not given, weight-scaled, proportional error; quantity = volume of distribution; value = 48.6 L
SMILES = CCN1CCN(Cc2ccc(NC(=O)c3ccc(C)c(NC(=O)c4cncc(-c5cccs5)c4)c3)cc2C(F)(F)F)CC1; test = LC-MS/MS; test system = C57BL/6 mouse, plasma; conditions = intraperitoneal, 30 mg/kg single dose, 0.5 h; quantity = mean plasma concentration; value = 0.716 µg/mL
SMILES = Cc1cc(-c2nccc3c2ccn3CC(=O)Nc2ccc(-c3cnccn3)cn2)ccn1; test system = human; conditions = 15 mg once daily, multiple ascending dose; quantity = subjects with suture rupture; value = 0%
SMILES = Cn1cc(-c2cn3nccc3c(-c3cnn([C@]4(CC#N)C[C@@H](C#N)C4)c3)n2)cn1; test system = healthy humans fed, plasma; conditions = oral, 1200 mg once daily, day 10, geometric mean; how to read = baseline: day 10 over day 1; quantity = observed accumulation ratio; value = 0.9
SMILES = Cc1ccc([C@@H]2O[C@H](CO)[C@@H](O)[C@H](O)[C@H]2O)cc1Cc1ccc(-c2ccc(F)cc2)s1; test system = Japanese type 2 diabetes patients; conditions = 400 mg, day 18, 24 h urine collection; how to read = baseline: baseline; quantity = urinary chloride excretion change; value = -23.5 mEq
SMILES = Cc1cc2sc(N)nc2c2cccnc12; test system = female BALB/c mice, plasma; conditions = i.p., 30 mg/kg, observed; quantity = AUMC extrapolated; value = 1.69%
SMILES = O=C(CCCCCCC(=O)Nc1ccc(CC[18F])cc1)NO; test system = athymic nu/nu male mice, LNCaP xenograft, liver; conditions = intravenous, 2 h; quantity = tissue uptake; value = 1.2 ± 0.6 %ID/g
SMILES = COc1cc(C(=O)N2CCC3(CC2)CC(=O)c2c(cnn2C(C)C)C3)cc(-c2ccc(C(=O)O)cc2)n1; test = item: HDL cholesterol; test system = human, fasting serum; conditions = 10 mg every 12 h, day 13, adjusted geometric mean; how to read = baseline: baseline; quantity = percentage change from baseline; value = -3.1%
SMILES = CC(=O)N(C)C1CCN(c2cc(F)cc(NC(=O)c3cc4c(F)ccc(C)c4[nH]3)c2)C1 (centres unmarked); test system = CD1 mouse, plasma; conditions = intravenous, 1 mg/kg, 0.5 h; quantity = plasma concentration; value = 426 ng/mL
SMILES = CN(CCC#N)C(=O)c1ccc(C2CCCCC2)cc1; test = liver microsome stability; test system = dog liver microsomes; conditions = 1 µM; quantity = hepatic clearance; value = 25 mL/min/kg
SMILES = O=c1ccc2c(OCCCCOc3ccccc3)c3ccoc3cc2o1; test = HPLC-MS; test system = Lewis rat, plasma; conditions = oral gavage, 50 mg/kg daily for 6 months, 24 h post-dose; quantity = trough plasma concentration; value = 290 ± 120 nM
SMILES = CN1CCN(C(=O)c2ccc(C3CCCCC3)cc2)CC1; test = liver microsome stability; test system = rat liver microsomes; conditions = 1 µM; quantity = hepatic clearance; value = 51 mL/min/kg
SMILES = NC1(C(=O)N[C@@H](CCO)c2ccc(Cl)cc2)CCN(c2nc[nH]c3nccc2-3)CC1; test system = metastatic CRPC patients; conditions = 320 mg b.i.d., grade 3 to 4, treatment-related, added: enzalutamide 160 mg daily; quantity = incidence of Somnolence; value = 0%
SMILES = NC[C@@]1(CC(=O)O)[C@@H]2CC[C@H]3C[C@@H]2[C@@H]1C3; test system = humans with severe renal impairment, plasma; conditions = dose not given; how to read = baseline: normal renal function; quantity = unbound AUC(0-inf) increase; value = 273%
SMILES = CCOc1c([C@H](C)n2nc(C)c3c(N)ncnc32)cc(Cl)c(F)c1[C@@H]1CNC(=O)C1; test system = human B-cell malignancy patients; conditions = oral, all doses, baseline below threshold; quantity = observations with HR ≤100 bpm; value = 99.1%
SMILES = O=Cc1c(O)cc(C(F)(F)F)cc1C(F)(F)F; test = chemical stability, HPLC-MS; test system = borate buffered saline; conditions = pH 10.2, no N-acetyl-lysine; quantity = degradation rate constant; value = 0 h⁻¹
SMILES = Cc1ccc(C(=O)N(CCCN)C(c2nc3snc(C)c3c(=O)n2Cc2ccccc2)C(C)C)cc1 (centres unmarked); test system = human patients; conditions = intravenous, 18 mg/day; quantity = patients with CTCAE grade ≥3 events; value = 100%
SMILES = O=S(=O)(c1ccc(-c2ccc3nccc(Nc4ccncn4)c3c2)cc1)N1CCOCC1; test system = female BALB/c mice, brain; conditions = intraperitoneal, 10 mg/kg, 8 h, mean, below LLOQ as zero; quantity = brain concentration; value = 0 ng/mL
SMILES = COc1ncc(-c2nc3c(n2C(C)C)[C@H](c2ccc(Cl)cc2)N(c2cc(Cl)cn(C)c2=O)C3=O)c(OC)n1; test = LC-MS/MS; test system = human, plasma; conditions = oral, 4 mg, cycle 1 day 8, low-dose arm; quantity = AUC(0-last); value = 140 ng·h/mL
SMILES = COCCN(C)C(=O)c1ccc([C@H]2[C@@H](F)[C@@H](F)C[C@@H](F)[C@H]2F)cc1; test = hepatocyte stability; test system = cryopreserved rat hepatocytes; conditions = 1 µM; quantity = hepatic clearance; value = 33 mL/min/kg
SMILES = CCO[C@H]1CCN(Cc2c(OC)cc(C)c3[nH]ccc23)[C@H](c2ccc(C(=O)O)cc2)C1; test system = human mild hepatic impairment, plasma; conditions = oral, 200 mg single dose, mean; quantity = unbound AUCinf; value = 5980 ng·h/mL

Some of these lines once more:
SMILES = CCCCC1=NC2(CCCC2)C(=O)N1Cc1ccc(-c2ccccc2S(=O)(=O)Nc2noc(C)c2C)c(COCC)c1; test system = healthy adult volunteers, plasma; conditions = oral, 1600 mg, single dose, fed, crushed tablet; quantity = Tmax; value = 6 h
SMILES = Cc1cn(C(=O)c2c(-c3c(Cl)cc(Cl)cc3Cl)noc2C(C)(C)F)c2cccc(/C=C/C(=O)O)c12; test system = human patients; conditions = 1000 mg bid, cycle 1 day 1; quantity = AUC(0-8h); value = 151 µg·h/mL
SMILES = Cc1ccc(N(C)C(=O)/C=C/c2ccco2)cc1; test = cold plate test; test system = mice; conditions = oral, 30 mg/kg single, 60 min; quantity = licking latency; value = 18.8 ± 0.8 s
SMILES = N#Cc1ccc2c(c1)[C@H]1CCCN(C(=O)c3ccc4[nH]cnc4c3)[C@H]1C2; test system = human, plasma; conditions = 80 mg once daily, day 7; quantity = pre-dose plasma concentration; value = 2080 nmol/L
